Published values gathered from unrelated publications.
A part holds a random share of what one study measured. Positions count from the first letter of the parent shown.

Set 1
Target: CCND1, cyclin fold, Cln2 fusion (human)
Technique: yeast growth competition, sequencing
Sample: yeast
Setting: weak parent motif
Reference: not given
Reading: higher = stronger binding
Starting sequence: WEE1 docking peptide (human); HKTFRKLRLFDTP; partner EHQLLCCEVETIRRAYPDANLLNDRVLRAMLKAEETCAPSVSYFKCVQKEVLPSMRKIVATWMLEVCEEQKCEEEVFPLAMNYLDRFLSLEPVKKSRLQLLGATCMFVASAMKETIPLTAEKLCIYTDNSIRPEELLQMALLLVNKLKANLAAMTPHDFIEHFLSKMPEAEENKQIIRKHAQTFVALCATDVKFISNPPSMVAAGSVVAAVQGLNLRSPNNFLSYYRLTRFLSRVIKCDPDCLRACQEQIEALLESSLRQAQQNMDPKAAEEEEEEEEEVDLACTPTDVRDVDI
Change | normalised enrichment score
HKDFRKLRLFDTP [T3D] | -0.0596
HKLFRKLRLFDTP [T3L] | -0.00926
HGTFRKLRLFDTP [K2G] | 0.402
HKTFRKNRLFDTP [L7N] | -0.124
HKTFRLLRLFDTP [K6L] | -0.118
HKTHRKLRLFDTP [F4H] | 0.27
HKTFRKLRLFDTQ [P13Q] | -0.403
HKIFRKLRLFDTP [T3I] | 0.628
HKTFRKLCLFDTP [R8C] | 0.565
HKTFRKLRLFDTT [P13T] | 0.516
IKTFRKLRLFDTP [H1I] | 1.21
HKTIRKLRLFDTP [F4I] | 0.347
QKTFRKLRLFDTP [H1Q] | -0.19
HKTFRKLRLFNTP [D11N] | -0.202
HKTFRKLRLEDTP [F10E] | -0.424
HKTFRKLRLFDTL [P13L] | 0.0566
HKTFRKLRMFDTP [L9M] | -0.268

Set 2
Target: Histone acetyltransferase KAT6A, winged helix 1, GST fusion (KAT6A, Homo sapiens, UniProt Q92794, residues 1-85)
Technique: protein binding microarray
Form: double-stranded DNA, one strand shown
Sample: in vitro
Tested at: not given
Setting: 8-mer, flanks averaged, mean of 2 arrays, mostly near background
Reference: not given
Reading: higher = stronger binding
Target sequence (chain): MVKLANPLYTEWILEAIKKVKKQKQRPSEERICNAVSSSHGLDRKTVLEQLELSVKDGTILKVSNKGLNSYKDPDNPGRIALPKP
Oligonucleotide | E-score
CGCCCGTA | 0.407
AGAGGCAG | -0.241
GCCTACGA | 0.0214
CGCTATCA | 0.264
ATCCAGGC | -0.119
ATTGGAAA | -0.239
ATTACATC | 0.109
TCAATACA | -0.145
CACACGTC | -0.138
AGCTGTGG | -0.218
CTCGCTTC | -0.015
AACCCTTA | -0.0866
AACTCCTC | -0.181
ACTGCGGC | 0.318
GACGACGA | -0.101
AGCTAGTA | -0.106
CGACACCC | 0.0235
GACATCTC | -0.0174
CTCAGGCC | 0.00348
GCCGGTCC | 0.38
GAGAAGCA | -0.185
CCAATGCC | 0.057
GATTCAAC | -0.0375

Set 3
Target: Phosphate system positive regulatory protein PHO4, full length, GST-tagged (PHO4, Saccharomyces cerevisiae, UniProt P07270, residues 1-312)
Technique: competition protein-binding microarray
Form: double-stranded DNA, one strand shown
Sample: in vitro
Tested at: 2 µM
Setting: whole 60-bp probe, lowest competitor level
With: Cbf1 competitor, 0.05 µM
Reading: higher = stronger binding
Construct (chain): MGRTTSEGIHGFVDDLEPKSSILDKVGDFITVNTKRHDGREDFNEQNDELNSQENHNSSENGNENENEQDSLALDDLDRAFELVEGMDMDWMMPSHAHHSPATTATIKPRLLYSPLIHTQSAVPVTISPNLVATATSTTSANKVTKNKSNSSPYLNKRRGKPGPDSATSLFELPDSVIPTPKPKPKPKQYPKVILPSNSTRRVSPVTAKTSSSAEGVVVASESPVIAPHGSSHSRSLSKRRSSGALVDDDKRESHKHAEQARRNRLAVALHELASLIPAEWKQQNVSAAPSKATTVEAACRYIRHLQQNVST
Oligonucleotide | fluorescence intensity
GTCAAGAACGGTGTCCACATGGTCTTCGCTTCTTTCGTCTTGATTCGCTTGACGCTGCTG | 8860 a.u.
GATGAGGCCCTTATGTACGTGCAAATATATGTGCGAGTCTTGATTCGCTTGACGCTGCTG | 7190 a.u.
CCGGTTAACGTTGTGGACGTGTTGGCGATGCCTCAAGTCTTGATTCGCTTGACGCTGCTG | 5010 a.u.
GCATTGCATTGCTGGCACGTTTTTGTGCAGCATGAAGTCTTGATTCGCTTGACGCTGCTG | 14900 a.u.
CGTCCTAGTGATTGGGGAGTGGGTGCCATGAGGAAGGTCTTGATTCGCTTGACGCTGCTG | 6980 a.u.
AAAGCGGTAATTTGACTGGTGGGTGCAGATATCTATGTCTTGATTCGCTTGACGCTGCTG | 4270 a.u.
CGGGGTTAAGTTTGAGAAGTGGGTGGCTTGCAGCAGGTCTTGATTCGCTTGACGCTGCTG | 4410 a.u.
CGTCCTAGTGATTGGGTGGTGGGTGCCATGAGGAAGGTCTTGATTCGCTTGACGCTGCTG | 7910 a.u.
AAAAAAATACATAGTAGCATGACAAACTAATAATAAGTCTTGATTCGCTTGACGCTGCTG | 5000 a.u.
TGATGAAATCTCTGTGACCTGGAGCATCAATAACGGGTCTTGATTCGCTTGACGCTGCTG | 3360 a.u.
GAAAGTACGAATTACCACGTCACTGTCATTTAGGTTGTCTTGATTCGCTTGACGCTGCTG | 5830 a.u.
TGCGCAACAACTTATCACGTGTTTTTATGTCTAGAAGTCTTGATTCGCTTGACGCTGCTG | 16900 a.u.
CTTTCCCGATCTTGCTTAGTGGGTGTAGCACATTTGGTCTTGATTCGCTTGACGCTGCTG | 4100 a.u.
AAATTACTAAGTTGGCACGTGGGTGACGCCGTATGAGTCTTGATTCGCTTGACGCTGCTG | 19900 a.u.
CATACCCAACCTTGTTCCGTGGGTGAAGATATTTGTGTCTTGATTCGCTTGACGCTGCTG | 5050 a.u.
AAATTACTAAGTTGTCTAGTGGGTGACGCCGTATGAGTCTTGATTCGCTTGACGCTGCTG | 3310 a.u.
AAGTTGGTAAGCGACCACGTGATGGTGCTTTGGGTTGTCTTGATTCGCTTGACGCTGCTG | 16500 a.u.
CTCTTTGAATGCTGTCACCTGTTACTGTGAAGACCAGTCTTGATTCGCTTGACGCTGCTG | 5590 a.u.
TGCGCAACAACTTGTAGGGTGGGTGTATGTCTAGAAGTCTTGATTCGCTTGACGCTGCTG | 4650 a.u.
AAAGCGGTAATTTGTAATGTGGGTGCAGATATCTATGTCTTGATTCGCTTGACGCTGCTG | 4950 a.u.
TTTTTTGAACTTCACCACGGGCTATTTTCTTCTTAGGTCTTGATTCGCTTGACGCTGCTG | 8960 a.u.
AGATTGCCTCCCTGACATGTGGTGGCAGAAAACCTGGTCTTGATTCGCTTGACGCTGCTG | 9720 a.u.
TCTAACTGGGCCCTTCACGTTTCTGACAATAGTTCTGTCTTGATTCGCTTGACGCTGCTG | 9460 a.u.
AAAGCGGTAATTTTTCACGTGGGCTCACATATCTATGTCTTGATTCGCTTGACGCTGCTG | 13900 a.u.
CTTCTGTAAATTTTTCACGTGATTTGACGCGCCCCGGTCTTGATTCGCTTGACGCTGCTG | 11900 a.u.

Set 4
Target: RNA binding protein fox-1 homolog 2, RRM domain, GST-SBP tag (RBFOX2, Homo sapiens, UniProt O43251-10, residues 100-194)
Technique: RNA Bind-n-Seq
Form: RNA
Sample: in vitro
Tested at: 365 nM
Setting: natural RNA segment, single round, ends assumed
Reference: no-protein control
Reading: higher = stronger binding
Target sequence (chain): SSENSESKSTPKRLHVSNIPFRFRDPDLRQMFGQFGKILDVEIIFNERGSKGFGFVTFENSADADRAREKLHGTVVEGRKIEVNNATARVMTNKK
Oligonucleotide | RBNS enrichment (R)
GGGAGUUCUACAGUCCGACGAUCGAUUCUCUACCCUCUAUCAAUACUAAAAAUAGAUUAGGAGGGUUUUUUUUUCUGUUUAUCAUGUUGAAUUUCAUUGACUUAAUUAGUCUUUAAAUUUGAAAACAUGUUUUUGGAAUUCUCGGGUGCCAA | 0.69
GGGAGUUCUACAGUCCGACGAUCUUCUUAUGCUUUUUUGGGGGGGGGUGUCAAUUUUUAGUAUAUUAAGAGCUAAAAGAAGUAAAGGUUUCUUAGACUUUUUUUGGGAGGGAGGCGUCAAUUUUUAGUAUAUUUGGAAUUCUCGGGUGCCAA | 1.16
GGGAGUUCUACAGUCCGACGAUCACUUAAGGGACCACCUUGGGAAGCUUCUGUAGCUUCAGCCAGGCAAGAAAGCUUCUUCCAACUUCUGUUUCUGGUGGGAGCGGGGGGACUCCCACUUUUUACAAUGUCUAUGGAAUUCUCGGGUGCCAA | 0.672
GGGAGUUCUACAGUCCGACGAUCGAAUUGGAUUUUCCUUUUCAAAAUGCACUUUGCUUUUUUUGUAUGUUUUGUUAUGUUGAGAUGUUUCUAAAGAAAAGAUUUUAUGUAAUUAUAAGAUGAAGCGUAGUGAAUGGAAUUCUCGGGUGCCAA | 0.998
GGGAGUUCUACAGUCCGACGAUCUGCUCUCCAUAUGAGCUCCAGGCCAGCUUGGGUUACAUAAGGAAACCCUGUCUUGAGAAAAACCAAUGAACAAAAAGGAAUUCCUUUCUUAAAAACGUUUAAUGCCAGGCUGGAAUUCUCGGGUGCCAA | 0.337
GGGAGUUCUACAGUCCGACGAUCCAUUCUCUUCCAGUUCUGUGGUAUUGUCCAAGAAUGUAUCAAUAAAAUACUUUGGUUAACUUUUUUAUUUUCUGUAGUAAGUGCUUUAGUUGUUCUCCCCAGCCCACCCUUGGAAUUCUCGGGUGCCAA | 0.336
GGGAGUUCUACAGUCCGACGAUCAGUGGGAAAUUUUCAAAAGUUUCUCCUGCUGGAAAUAAGGUAUAAUUUGUAUUUUGCAGACAAUUCAGUAAAGUUACUGGCUUUCUUAGUGAUGCAGUGUCCGUGGUGCAUGGAAUUCUCGGGUGCCAA | 1.92
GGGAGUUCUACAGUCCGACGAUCCGUGAUCAGAUCCUGAAUCCCAACCCCCAAGACCUGAGGCCUCUGUCAUCUCCCCAUCCCCAGGCUAACAACCACAGCCCCUCACUUUUAGAGAUUAGGAGACCCUUUGUUGGAAUUCUCGGGUGCCAA | 0.417
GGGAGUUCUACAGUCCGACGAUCUGGUGCCAAAACCAGGCCUCUGCUGCCGCCCUUCCUGGAGGCUGCCUAUGUUGGGGGGGACCCUGCCUCAGCUGACCCGGCCUCUCUGCCCCACCCAAGCCCAAACUUGGUGGAAUUCUCGGGUGCCAA | 0.163
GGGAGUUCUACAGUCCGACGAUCACCUCCACACAAGACCCUGUUGACUCAGGAGGAUCUCCGCAAUGGUUGAUUAAUAGCUGAAGCAAAGUAUCCAAAUUUGUGACAAGGGUUUGUGUGUAUCCCCUCCGUGAUGGAAUUCUCGGGUGCCAA | 0.271
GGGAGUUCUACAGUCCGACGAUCAGAACAGUGUGGAGCUUGAGAAAGAGAACUUUAAAAAUUAGAGGGUCCCUUUCUGCAGAGGAAGGGAUGCUCGCAGGGUGGCAGUGGCCCAGCCCCAGCCUCAGGGACGGUGGAAUUCUCGGGUGCCAA | 0.506
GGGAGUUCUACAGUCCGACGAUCUUUCAAGCCAUGUAAUCCAUUAAUUUUGUGGGAAGCUUAAUAAAUCAGAAGCUUUUAUUUCUUCUUAUUUUAAUUGUAUCUUAGUUGACUGAAUUUUGGUGAAGUUUUUUUGGAAUUCUCGGGUGCCAA | 0.838

Mixed results
Substance | target | test | test system | conditions | how to read | quantity | result
PhoQ, residues 284 288 289 292 302 303 TTCLQL | PhoP, residues 12 14 15 18 19 TQAIL (Escherichia coli, UniProt P23836) | Sort-seq, measured: YFP reporter | E. coli | PhoQ-PhoP variant library, with: 10 µM Mg2+ | reference: high Mg2+ state, higher = stronger signaling | fold induction | 8.17

For quick reference, copied from above (set 2):
Oligonucleotide | E-score
GACGACGA | -0.101
CCAATGCC | 0.057
ATCCAGGC | -0.119
GCCGGTCC | 0.38
GATTCAAC | -0.0375
AGCTGTGG | -0.218
GAGAAGCA | -0.185
CGCTATCA | 0.264
